Experimental data from different studies.
Numbered parts are unrelated; each lists some results of a single study. Changes are numbered by the printed parent chain.

Study 1
Target: Histone acetyltransferase KAT6A, both winged helices, GST fusion (KAT6A, Homo sapiens, UniProt Q92794, residues 1-181)
Technique: protein binding microarray
Form: double-stranded DNA, one strand shown
Matrix: in vitro
Tested at: not given
Notes: 8-mer, flanks averaged, mean of 2 arrays, mostly near background
Relative to: not given
Reading: higher = stronger binding
Residues (chain): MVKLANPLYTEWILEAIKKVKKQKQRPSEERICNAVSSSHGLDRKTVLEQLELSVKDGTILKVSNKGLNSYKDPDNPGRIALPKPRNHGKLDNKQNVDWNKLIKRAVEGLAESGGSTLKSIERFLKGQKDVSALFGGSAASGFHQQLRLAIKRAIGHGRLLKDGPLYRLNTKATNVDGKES
| Sequence | E-score |
| --- | --- |
| AAGGCTGT | -0.11 |
| CTCGCCAA | -0.003 |
| CTAGTTGA | -0.161 |
| CCGGGAAA | 0.18 |
| AATAGTGC | 0.157 |
| CAACTGCC | 0.124 |
| GATACTAA | 0.0533 |
| CACCGCTA | 0.151 |
| AGGACAGA | -0.189 |
| AAGTGCAA | -0.182 |
| TCGGAGCA | 0.0474 |
| AGTACGAC | -0.054 |
| AACCCACC | -0.0337 |
| AGTCTACC | 0.0877 |
| GAGGTTCA | 0.0207 |
| AATGATGC | -0.0175 |
| ACTGCGAA | 0.0529 |

Study 2
Target: Ras GTPase-activating protein-binding protein 1, full length (G3BP1, Homo sapiens, UniProt Q13283)
Chain of UniProt Q13283 (whole entry, looked up): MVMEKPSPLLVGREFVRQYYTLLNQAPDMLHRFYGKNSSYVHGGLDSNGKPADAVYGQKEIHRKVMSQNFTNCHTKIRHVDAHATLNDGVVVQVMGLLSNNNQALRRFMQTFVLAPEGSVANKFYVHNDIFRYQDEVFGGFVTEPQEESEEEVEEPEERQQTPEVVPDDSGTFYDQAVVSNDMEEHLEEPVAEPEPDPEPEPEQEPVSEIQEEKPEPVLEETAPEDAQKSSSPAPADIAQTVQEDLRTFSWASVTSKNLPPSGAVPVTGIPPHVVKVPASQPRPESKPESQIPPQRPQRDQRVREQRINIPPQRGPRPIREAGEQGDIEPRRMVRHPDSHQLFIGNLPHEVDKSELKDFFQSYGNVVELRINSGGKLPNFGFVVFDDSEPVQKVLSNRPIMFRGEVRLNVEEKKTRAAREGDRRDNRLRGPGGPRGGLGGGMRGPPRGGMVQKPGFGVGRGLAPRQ
Technique: RNA Bind-n-Seq
Form: RNA
Matrix: in vitro
Tested at: 200 nM
Notes: whole 134-nt RNA, ends assumed
Together with: 150 mM KCl
Relative to: input library
Reading: higher = stronger binding
Constant ends, left off below: GGGAGUUCUACAGUCCGACGAUC … UGGAAUUCUCGGGUGUCAAGG
| Sequence | log2 enrichment |
| --- | --- |
| CCUGUGCUACACAUCGUAUGUACCGAAUCGGGUUUUUUGGGGUUUUUUGGUUUUUUGGGGAAAGUAUUAUGUUACGCCGUUCGGAUCUGC | -0.731 |
| UCCUGUGCUACACAUCGUAUGUACCGAAUCGGGGAAAAAGGGAAAAAGGGGAAAAAGGGGAAAGUAUUAUGUUACGCCGUUCGGAUCUGC | 0.364 |
| AGUCCUGUGCUACACAUCGUAUGUACCGAAUCGGGGUGGGGAAAGGGGAAAAAGGGGAAAGUAUUAUGUUACGCCGUUCGGAUCUGCACU | 0.472 |
| GUCCUGUGCUACACAUCGUAUGUACCGAAUCGGGAAAAAGGGAAAGGGUUUUUUUGGGAAAGUAUUAUGUUACGCCGUUCGGAUCUGCAC | -0.492 |
| UUUACAAAUAUGCCCAAGACUUCUUGGUGGCUAUUGCAGAGCCAGUGUGCCGACCAACCCAUGUGCAUGAGUACAAACUAACUGCCUACU | 0.0178 |
| GUCCUGUGCUACACAUCGUAUGUACCGAAUCGGGAGGGUUUUUUUGGGUUUUUUUGGGAAAGUAUUAUGUUACGCCGUUCGGAUCUGCAC | -0.404 |
| AGUCCUGUGCUACACAUCGUAUGUACCGAAUCGGGGCCCCCGGCCCCCGGGCCCCCGGAAAGUAUUAUGUUACGCCGUUCGGAUCUGCAC | -0.871 |
| CCUGUGCUACACAUCGUAUGUACCGAAUCGGGGAAAAAGGGGAAAAAAAGGGGUUUGGGGAAAGUAUUAUGUUACGCCGUUCGGAUCUGC | 0.354 |

Study 3
Target: CCNA2, cyclin fold, Cln2 fusion (human)
Technique: yeast growth competition, sequencing
Matrix: yeast
Notes: strong parent motif
Relative to: not given
Reading: higher = stronger binding
Starting sequence: E2F1 docking peptide (human); PPVKRRLDFETDH
| Substitution | normalised enrichment score |
| --- | --- |
| E10A | 6.21 |
| T11M | 5.85 |
| L7W | 0.0714 |
| K4C | 5.03 |
| F9H | 0.242 |
| P2N | 6.28 |
| T11L | 5.73 |
| R6C | 5.55 |
| D12Q | 6.08 |

Study 4
Target: RING finger protein unkempt homolog, zinc fingers 1-6, GST-SBP tag (UNK, Homo sapiens, UniProt Q9C0B0, residues 30-357)
Chain of UniProt Q9C0B0 (30-357, looked up): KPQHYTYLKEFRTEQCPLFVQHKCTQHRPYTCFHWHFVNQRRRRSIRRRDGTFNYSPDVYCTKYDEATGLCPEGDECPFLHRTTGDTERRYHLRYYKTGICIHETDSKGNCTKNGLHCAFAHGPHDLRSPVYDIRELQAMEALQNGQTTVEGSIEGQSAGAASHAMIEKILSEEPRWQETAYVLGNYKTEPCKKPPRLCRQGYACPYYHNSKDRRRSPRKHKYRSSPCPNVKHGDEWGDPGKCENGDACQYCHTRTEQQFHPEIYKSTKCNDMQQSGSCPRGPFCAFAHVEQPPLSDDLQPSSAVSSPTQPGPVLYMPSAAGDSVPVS
Technique: RNA Bind-n-Seq
Form: RNA
Matrix: in vitro
Tested at: not given
Notes: RNA with constant flanks, human-mouse chimeric sites, ends assumed
Relative to: input RNA pool
Reading: higher = stronger binding
Constant ends, left off below: GGGAGUUCUACAGUCCGACGAUC … CAACAGAGGAUUGAGCAUCA
| Sequence | bound/input enrichment |
| --- | --- |
| UCUGAGGUACCACUGAAGAGACCUUAAAAGAAUCAUUUGAGGGCUCUGUUCGUGCAAAGGAUAGUUAUGAUCGGGAAACUGGUUCUUCCAAAGGGUUUGGUUUUGUAGACUUUAAUAGUG | 0.95 ratio |
| AUCAAGUAUUUUGGGGACAUCAUUAGUGUGGGACAGAGACUGUUGCAAGGAGCUCGGAUCUUAGGGAUUCCAGUUAUCAUAACGGAACAAUACCCCAAAGGACUUGGCAGCACCGUUCAA | 0.193 ratio |
| CACGUGUCUGCAGUGCUUGAUGUGGACUACUCUCCCACUGGGAAGGAAUUUGUGUCUGCCAGCUUUGAUAAGUCUAUUCGAAUCUUUCCUGUGGACAAGAGCCGAAGCAGGGAAGUGUAU | 0.349 ratio |
| AAAGCCCUUGAAGAAAAAAAAAACUCGAACAGAUUUAACAAGGGUAGCCAGCUUGGAGUCUAGCAACUUGCCAAUGUGUUUACCAAUCUGGGGGCUUGUUUUUCUUUUCUUCUUUCAAAU | 0.366 ratio |
| CGCUGGCCCAAGCUGAUGGACUCUGAUGGCCUCCAUCUCUCAGGCACGUUUGCCUUCUCUUAGUCCCUGUUUUCGGGUCACAAAGCUUCUCAGUACUGUGGUUUGAAAGCACCAGCUUUG | 0.129 ratio |

Study 5
Target: RNA binding protein fox-1 homolog 2, RRM domain, GST-SBP tag (RBFOX2, Homo sapiens, UniProt O43251-10, residues 100-194)
Technique: RNA Bind-n-Seq
Form: RNA
Matrix: in vitro
Tested at: 365 nM
Notes: natural RNA segment, single round, ends assumed
Relative to: no-protein control
Reading: higher = stronger binding
Constant ends, left off below: GGGAGUUCUACAGUCCGACGAUC … UGGAAUUCUCGGGUGCCAA
Target sequence (chain): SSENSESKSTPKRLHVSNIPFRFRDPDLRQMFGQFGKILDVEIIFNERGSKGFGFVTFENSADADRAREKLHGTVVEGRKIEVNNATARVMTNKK
| Sequence | RBNS enrichment (R) |
| --- | --- |
| UGCAGGCUUCCCGUCACGUGUCCCUGCUGGAAGGCUAUUCAGUGUUUGUAUUUAUUGUGCCUUACAUAGGAAGGAAGGGACUCAACUGAAUCCCUCCUCCCUCUAAACAG | 0.29 |
| UUACCAAUCAUAUUAAUACAAUGAUGCUAUUUGCAAUUCCUGCUCCUAGGGGAGGGGAGAUAAGAAACCCUCACUCUCUACAGGUUUGGGUACAAGUGGCAACCUGCUUC | 0.526 |
| UAGGAAGAUUUGGGCAUAUAUGCUCUCUAUUGGUUCCUUCCAUAUUAAACAUACCUGUGUUUUGAGAAGUGUCCUUCCCACUUUGGGCUUUCAGAAGGAAUACUUGGUUC | 0.243 |
| CUGUGCCAUGUCUGUCAUUCCUGUUGAACAGACUCUUCCUGUCUGGUGACCACCUAUGCUUCAGUGCAUUUUCUAAACAAUUUCUCAAACUGAUCUGCUCCCGGGUGCUU | 0.928 |
| AGACGCGGUGUGUGGUCUGCUUCAGUGACUUCGAGGCGCGGCAGCUGCUCCGAGUCCUCCCCUGCAACCAUGAGUUCCACACCAAGUGUGUUGACAAGUGGUUGAAGGCC | 0.36 |
| UGGUGGGGAGGAGGGAAGCUUAACUCAAGUUUGGGUUAGUGAGUUAGCAAGCUCUUUGUGCAGAUGGGGAUGUAGGUAAAUCUUUUUAAAAGUGAAAUUAACCUCCUGCC | 2.19 |
| UUUGUCACCUUUGCAUUGCAGAAUAAAUACCCAAUAACCGUUUUUAUAGGAGUUGCUCCUCUUUGCAUGGUUCUGUUCUAUAGAAGUGACUGAUAACAGCCAUUGCACUG | 0.797 |
| AGAACACUUUUGAUCCAUCACAGCAGGUCACCAGCCAUGACAAGGCUCAAUCUAGGACUCUCAGCUUCCUGCGCUGCUGGACACAUUGACCUCUGUGCAAACAUUGUAGA | 0.29 |

Study 6
Target: PABPC1L2, full length, GST fusion (mouse, UniProt A0ABA7IW68)
Technique: RNAcompete
Form: RNA
Matrix: in vitro
Tested at: 20 nM
Notes: 7-mer, probes averaged, single round
Relative to: mean of 7-mers
Reading: higher = stronger binding
| Sequence | 7-mer Z-score |
| --- | --- |
| UAAAAGU | 2.36 |
| GAAACGC | 0.0152 |
| UGGAUGC | 0.16 |
| CACUACG | -0.215 |
| GGAUAUU | -0.0464 |
| AAGAGGC | 0.622 |
| UCCCCCA | -0.431 |
| CCAAGGU | -0.139 |
| GGACGAC | 0.0551 |
| GGAAGCA | 0.0225 |
| AGAUUGG | -0.103 |
| UCAGAAG | -0.144 |
| UGCAACU | -0.157 |

Study 7
Target: Phosphate system positive regulatory protein PHO4, full length, GST-tagged (PHO4, Saccharomyces cerevisiae, UniProt P07270, residues 1-312)
Technique: competition protein-binding microarray
Form: double-stranded DNA, one strand shown
Matrix: in vitro
Tested at: 2 µM
Notes: whole 60-bp probe, lowest competitor level
Together with: Cbf1 competitor, 0.05 µM
Reading: higher = stronger binding
Constant ends, left off below: … GTCTTGATTCGCTTGACGCTGCTG
Target sequence (chain): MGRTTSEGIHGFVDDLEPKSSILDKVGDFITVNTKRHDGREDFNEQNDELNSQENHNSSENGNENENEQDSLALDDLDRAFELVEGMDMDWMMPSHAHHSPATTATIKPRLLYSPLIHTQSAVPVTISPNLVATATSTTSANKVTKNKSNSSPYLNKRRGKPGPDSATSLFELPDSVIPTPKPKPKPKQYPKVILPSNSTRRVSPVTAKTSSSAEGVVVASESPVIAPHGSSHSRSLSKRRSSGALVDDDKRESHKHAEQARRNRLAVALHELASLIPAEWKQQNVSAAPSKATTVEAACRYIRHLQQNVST
| Sequence | fluorescence intensity [a.u.] |
| --- | --- |
| CATACCCAACCTTGACACGTGTTTTAAGATATTTGT | 19700 |
| ACAGACCCCGAAGGAGCCGTGATGGACTTTACACCA | 3580 |
| CATACCCAACCTTTTCACGTGGACTAAGATATTTGT | 16400 |
| ATTCCTGAAGAATCCAAAGGATCTTTTAAGTATATA | 2460 |
| CGTCCTAGTGATTGGGGCGTGGGTGCCATGAGGAAG | 9930 |
| TGCGCAACAACTTGCATGGTGGGTGTATGTCTAGAA | 5580 |
| ATGGACCCGCATAGAAACGTGAGACTGAGAGGATAT | 9190 |
| GCCTCCGTCTCTTCCACTGTGCAGGGCGCTAGCTCA | 2990 |
| GTCTTGTCTCATTGTCACACAACTTTCCCCACTTCA | 4700 |
| ATGGATTGTCTCTGGCACGTTCCACTGGTGGCTCAG | 14800 |
| CGTCCTAGTGATTGGCCCGTGGGTGCCATGAGGAAG | 11400 |
| CTTCTGTAAATTTGGTGTGTGGGTGGACGCGCCCCG | 5440 |
| GTCTTGTCTCATTGTCACCACACTTTCCCCACTTCA | 6150 |
| CCTTAGTTGGGTCTGCATGTGGGCAGGATCTACCAA | 9550 |
| TGCGCAACAACTTGCCCGGTGGGTGTATGTCTAGAA | 4870 |

For quick reference, copied from above (study 5):
| Sequence | RBNS enrichment (R) |
| --- | --- |
| UAGGAAGAUUUGGGCAUAUAUGCUCUCUAUUGGUUCCUUCCAUAUUAAACAUACCUGUGUUUUGAGAAGUGUCCUUCCCACUUUGGGCUUUCAGAAGGAAUACUUGGUUC | 0.243 |
| UGCAGGCUUCCCGUCACGUGUCCCUGCUGGAAGGCUAUUCAGUGUUUGUAUUUAUUGUGCCUUACAUAGGAAGGAAGGGACUCAACUGAAUCCCUCCUCCCUCUAAACAG | 0.29 |
| UUACCAAUCAUAUUAAUACAAUGAUGCUAUUUGCAAUUCCUGCUCCUAGGGGAGGGGAGAUAAGAAACCCUCACUCUCUACAGGUUUGGGUACAAGUGGCAACCUGCUUC | 0.526 |
| AGAACACUUUUGAUCCAUCACAGCAGGUCACCAGCCAUGACAAGGCUCAAUCUAGGACUCUCAGCUUCCUGCGCUGCUGGACACAUUGACCUCUGUGCAAACAUUGUAGA | 0.29 |
| UGGUGGGGAGGAGGGAAGCUUAACUCAAGUUUGGGUUAGUGAGUUAGCAAGCUCUUUGUGCAGAUGGGGAUGUAGGUAAAUCUUUUUAAAAGUGAAAUUAACCUCCUGCC | 2.19 |
| UUUGUCACCUUUGCAUUGCAGAAUAAAUACCCAAUAACCGUUUUUAUAGGAGUUGCUCCUCUUUGCAUGGUUCUGUUCUAUAGAAGUGACUGAUAACAGCCAUUGCACUG | 0.797 |
| AGACGCGGUGUGUGGUCUGCUUCAGUGACUUCGAGGCGCGGCAGCUGCUCCGAGUCCUCCCCUGCAACCAUGAGUUCCACACCAAGUGUGUUGACAAGUGGUUGAAGGCC | 0.36 |
| CUGUGCCAUGUCUGUCAUUCCUGUUGAACAGACUCUUCCUGUCUGGUGACCACCUAUGCUUCAGUGCAUUUUCUAAACAAUUUCUCAAACUGAUCUGCUCCCGGGUGCUU | 0.928 |
